Experimental data pooled from the literature.
Lines come from different studies, so protocols differ. Numbers after ± are the reported error. Positions of bridges follow the written chain, without caps; N, C: chain ends. No end group written: not given here.
Streptavidin E68V/S69T/V71R: Streptavidin (Streptomyces avidinii, UniProt P22629, E68V/S69T/V71R)
Chain of UniProt P22629 (whole entry, unmodified, looked up): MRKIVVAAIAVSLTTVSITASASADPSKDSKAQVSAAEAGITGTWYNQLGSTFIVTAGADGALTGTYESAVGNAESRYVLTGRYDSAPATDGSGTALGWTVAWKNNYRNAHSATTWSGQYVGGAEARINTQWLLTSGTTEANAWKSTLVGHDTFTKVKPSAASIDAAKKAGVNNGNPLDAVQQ
Chain of UniProt Q9QXD6 (whole entry, unmodified, looked up): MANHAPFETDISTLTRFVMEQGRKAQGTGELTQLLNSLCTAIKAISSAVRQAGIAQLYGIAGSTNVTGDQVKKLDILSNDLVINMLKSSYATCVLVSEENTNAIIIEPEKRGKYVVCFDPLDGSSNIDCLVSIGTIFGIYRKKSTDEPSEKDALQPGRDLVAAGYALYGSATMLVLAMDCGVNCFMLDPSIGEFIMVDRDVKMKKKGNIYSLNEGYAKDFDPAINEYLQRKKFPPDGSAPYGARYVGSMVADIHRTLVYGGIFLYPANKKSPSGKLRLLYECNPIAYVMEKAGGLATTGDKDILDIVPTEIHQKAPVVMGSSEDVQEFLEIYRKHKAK
Chain of UniProt Q13133 (whole entry, looked up): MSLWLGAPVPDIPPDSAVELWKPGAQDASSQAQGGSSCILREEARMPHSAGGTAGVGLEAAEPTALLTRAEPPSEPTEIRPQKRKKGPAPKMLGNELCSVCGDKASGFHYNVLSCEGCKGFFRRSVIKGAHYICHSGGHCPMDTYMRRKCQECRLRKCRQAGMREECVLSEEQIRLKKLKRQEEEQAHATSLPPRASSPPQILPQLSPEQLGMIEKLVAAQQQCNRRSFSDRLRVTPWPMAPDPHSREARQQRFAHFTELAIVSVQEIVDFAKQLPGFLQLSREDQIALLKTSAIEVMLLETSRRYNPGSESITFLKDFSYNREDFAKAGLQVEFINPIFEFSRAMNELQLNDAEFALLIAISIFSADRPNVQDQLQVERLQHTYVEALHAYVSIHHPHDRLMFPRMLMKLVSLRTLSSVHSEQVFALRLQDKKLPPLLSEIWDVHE

nonaarginine
Kd (PorA peptide pore; peptide binding, planar bilayer single-channel recording; pH 7.4, -10 mV, cis side, 150 mM KCl): 0.926 ± 0.1 µM

Ivermectin
IC50 (NR1H3 (Homo sapiens, UniProt Q13133); receptor activity, inhibitor; cells): 6.03 ± 4.39 µM

hexaarginine
Kd (PorA peptide pore; peptide binding, planar bilayer single-channel recording; pH 7.4, -20 mV, cis side, 150 mM KCl): 18.6 ± 2 µM

Polymyxin B
NGAL level (mouse, serum; 20 mg/kg): 46.2 ng/mL

aspterric acid
inhibition (root length; Arabidopsis thaliana Col-0 seeds; 12.5 µg/mL, 7 days, dark): 99.2%

ACHYHPQFYMRCSG (disulfide 2-12 (inferred)) (disulfide)
Kd (Streptavidin E68V/S69T/V71R; binding, yeast surface display; 1 h, 4 °C, with: Strep-Tactin): 0.0032 ± 0.0001 µM

TNP-AMP
Kd (Fructose-1,6-bisphosphatase 1 (Mus musculus, UniProt Q9QXD6, G27P); fluorescence titration; 1 µM enzyme, untagged; 25 °C, mutant G27P): > 100 µM

thalidomide-FITC conjugate
Kd (Protein cereblon, thalidomide-binding domain (CRBN, Homo sapiens, UniProt Q96SW2); binding, TR-FRET; CRBN thalidomide-binding domain): 0.253 ± 0.038 µM

NQVANAQ
Kd (Escherichia coli 23S rRNA H69, modified; binding, ESI-MS titration; peptide, 50% isopropanol, 150 mM ammonium acetate; with: RNA 2.7 µM): > 120 µM

ACHPQFYMRCSG (disulfide 2-10 (inferred)) (disulfide)
Kd (Streptavidin E68V/S69T/V71R; binding, yeast surface display; 1 h, 4 °C, with: Strep-Tactin): 0.0233 ± 0.0008 µM

PPAIIIT
Kd (Protein phosphatase 3 catalytic subunit alpha, with calcineurin B (PPP3CA, Homo sapiens, UniProt Q08209); binding, stopped-flow FRET; peptide; 36 °C, with: AKAP79(333-408)): ~0.3 µM

asialo ovine submaxillary mucin
Kd (Vicia villosa lectin; glycan microarray): 0.0003 ± 0.0001 µM

insulin human
fold change (item: TGM2 mRNA; uninfected mouse, brain; i.p., dose not given; reference: PBS): 1.35

Some of these lines once more:
TNP-AMP
Kd (Fructose-1,6-bisphosphatase 1 (Mus musculus, UniProt Q9QXD6, G27P); fluorescence titration; 1 µM enzyme, untagged; 25 °C, mutant G27P): > 100 µM
